Measured values collected from several papers.
Numbered parts are unrelated; each lists some results of a single study.
Chain of UniProt P00519 (whole entry, unmodified, looked up): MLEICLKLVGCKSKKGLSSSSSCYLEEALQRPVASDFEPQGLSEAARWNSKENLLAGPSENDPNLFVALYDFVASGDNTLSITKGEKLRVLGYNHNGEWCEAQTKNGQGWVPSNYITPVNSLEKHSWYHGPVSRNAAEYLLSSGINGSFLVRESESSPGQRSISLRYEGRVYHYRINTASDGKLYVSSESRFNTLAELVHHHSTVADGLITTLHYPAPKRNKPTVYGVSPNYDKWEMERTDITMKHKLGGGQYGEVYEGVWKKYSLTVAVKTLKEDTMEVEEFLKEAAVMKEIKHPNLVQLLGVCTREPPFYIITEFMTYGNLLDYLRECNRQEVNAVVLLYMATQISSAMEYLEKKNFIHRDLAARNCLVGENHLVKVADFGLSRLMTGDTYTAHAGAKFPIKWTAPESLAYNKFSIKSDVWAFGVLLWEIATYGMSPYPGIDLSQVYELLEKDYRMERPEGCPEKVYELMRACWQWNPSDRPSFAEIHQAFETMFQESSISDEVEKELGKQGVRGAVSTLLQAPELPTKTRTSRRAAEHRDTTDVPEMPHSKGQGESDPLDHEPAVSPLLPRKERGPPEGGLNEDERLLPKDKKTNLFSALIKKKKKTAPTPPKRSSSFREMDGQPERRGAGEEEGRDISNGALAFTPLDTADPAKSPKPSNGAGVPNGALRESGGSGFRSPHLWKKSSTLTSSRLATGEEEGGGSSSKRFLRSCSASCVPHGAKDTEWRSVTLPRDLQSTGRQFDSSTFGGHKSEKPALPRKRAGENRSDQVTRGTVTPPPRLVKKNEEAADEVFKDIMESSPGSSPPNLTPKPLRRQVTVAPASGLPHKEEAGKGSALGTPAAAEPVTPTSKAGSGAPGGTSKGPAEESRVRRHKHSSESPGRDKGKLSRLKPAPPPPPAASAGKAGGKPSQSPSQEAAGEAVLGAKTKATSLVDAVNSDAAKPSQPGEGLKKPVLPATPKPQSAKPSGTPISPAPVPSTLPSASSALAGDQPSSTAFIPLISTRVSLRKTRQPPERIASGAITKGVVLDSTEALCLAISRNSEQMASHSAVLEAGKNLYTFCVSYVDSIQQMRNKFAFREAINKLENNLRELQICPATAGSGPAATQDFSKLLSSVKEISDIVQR
Chain of UniProt Q9UK32 (whole entry, looked up): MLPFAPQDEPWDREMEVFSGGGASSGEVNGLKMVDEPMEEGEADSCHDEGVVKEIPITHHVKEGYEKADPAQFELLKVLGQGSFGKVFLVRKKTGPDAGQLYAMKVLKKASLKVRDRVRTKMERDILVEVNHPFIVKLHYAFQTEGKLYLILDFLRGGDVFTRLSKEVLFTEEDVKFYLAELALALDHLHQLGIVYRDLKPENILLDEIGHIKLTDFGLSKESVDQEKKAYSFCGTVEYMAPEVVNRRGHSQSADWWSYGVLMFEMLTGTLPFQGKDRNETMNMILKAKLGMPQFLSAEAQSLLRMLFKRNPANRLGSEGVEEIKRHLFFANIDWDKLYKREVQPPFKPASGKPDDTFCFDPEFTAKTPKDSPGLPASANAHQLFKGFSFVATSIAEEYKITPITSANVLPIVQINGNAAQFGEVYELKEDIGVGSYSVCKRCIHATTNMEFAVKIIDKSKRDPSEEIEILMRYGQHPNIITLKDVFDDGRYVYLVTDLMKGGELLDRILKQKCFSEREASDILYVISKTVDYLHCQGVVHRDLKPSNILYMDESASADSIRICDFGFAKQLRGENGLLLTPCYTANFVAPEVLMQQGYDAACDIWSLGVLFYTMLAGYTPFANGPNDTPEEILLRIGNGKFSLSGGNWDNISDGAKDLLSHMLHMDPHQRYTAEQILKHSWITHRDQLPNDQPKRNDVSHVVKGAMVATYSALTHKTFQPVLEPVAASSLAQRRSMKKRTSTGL
Chain of UniProt Q8WXR4 (whole entry, looked up): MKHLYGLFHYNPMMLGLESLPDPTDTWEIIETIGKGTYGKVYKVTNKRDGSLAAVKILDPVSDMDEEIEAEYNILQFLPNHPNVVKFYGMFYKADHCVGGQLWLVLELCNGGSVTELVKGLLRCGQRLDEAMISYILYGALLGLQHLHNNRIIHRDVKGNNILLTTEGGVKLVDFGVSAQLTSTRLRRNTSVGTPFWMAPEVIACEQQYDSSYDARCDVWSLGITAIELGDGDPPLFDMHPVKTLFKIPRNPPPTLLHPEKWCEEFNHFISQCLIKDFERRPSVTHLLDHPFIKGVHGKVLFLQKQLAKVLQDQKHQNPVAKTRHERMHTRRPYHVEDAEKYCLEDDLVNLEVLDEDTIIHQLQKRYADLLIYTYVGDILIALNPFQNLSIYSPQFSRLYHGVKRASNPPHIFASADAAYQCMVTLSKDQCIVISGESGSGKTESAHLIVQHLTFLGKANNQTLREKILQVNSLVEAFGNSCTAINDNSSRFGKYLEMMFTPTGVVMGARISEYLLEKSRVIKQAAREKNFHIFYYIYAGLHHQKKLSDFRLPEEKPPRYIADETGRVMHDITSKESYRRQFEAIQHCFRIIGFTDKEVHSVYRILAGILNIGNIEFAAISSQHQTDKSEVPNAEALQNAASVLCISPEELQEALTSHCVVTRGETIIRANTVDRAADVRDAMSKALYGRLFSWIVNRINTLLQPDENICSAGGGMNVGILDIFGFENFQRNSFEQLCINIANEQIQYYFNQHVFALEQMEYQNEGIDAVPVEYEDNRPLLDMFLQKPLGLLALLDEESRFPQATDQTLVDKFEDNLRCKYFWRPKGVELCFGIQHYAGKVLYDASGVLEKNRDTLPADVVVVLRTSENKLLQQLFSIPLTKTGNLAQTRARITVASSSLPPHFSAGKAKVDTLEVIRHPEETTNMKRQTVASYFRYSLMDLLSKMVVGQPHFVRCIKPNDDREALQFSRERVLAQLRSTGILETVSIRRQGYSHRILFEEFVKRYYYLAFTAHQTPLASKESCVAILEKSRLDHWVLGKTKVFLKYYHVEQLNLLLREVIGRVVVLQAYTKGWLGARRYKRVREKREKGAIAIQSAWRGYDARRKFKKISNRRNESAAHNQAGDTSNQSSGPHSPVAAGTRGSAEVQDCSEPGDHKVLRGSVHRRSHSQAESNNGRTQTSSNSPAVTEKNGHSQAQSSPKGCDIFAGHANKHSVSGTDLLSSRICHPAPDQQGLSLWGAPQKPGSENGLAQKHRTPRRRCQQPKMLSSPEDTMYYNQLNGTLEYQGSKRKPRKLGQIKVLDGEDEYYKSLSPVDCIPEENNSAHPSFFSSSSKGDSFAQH
Chain of UniProt Q6P3R8 (whole entry, looked up): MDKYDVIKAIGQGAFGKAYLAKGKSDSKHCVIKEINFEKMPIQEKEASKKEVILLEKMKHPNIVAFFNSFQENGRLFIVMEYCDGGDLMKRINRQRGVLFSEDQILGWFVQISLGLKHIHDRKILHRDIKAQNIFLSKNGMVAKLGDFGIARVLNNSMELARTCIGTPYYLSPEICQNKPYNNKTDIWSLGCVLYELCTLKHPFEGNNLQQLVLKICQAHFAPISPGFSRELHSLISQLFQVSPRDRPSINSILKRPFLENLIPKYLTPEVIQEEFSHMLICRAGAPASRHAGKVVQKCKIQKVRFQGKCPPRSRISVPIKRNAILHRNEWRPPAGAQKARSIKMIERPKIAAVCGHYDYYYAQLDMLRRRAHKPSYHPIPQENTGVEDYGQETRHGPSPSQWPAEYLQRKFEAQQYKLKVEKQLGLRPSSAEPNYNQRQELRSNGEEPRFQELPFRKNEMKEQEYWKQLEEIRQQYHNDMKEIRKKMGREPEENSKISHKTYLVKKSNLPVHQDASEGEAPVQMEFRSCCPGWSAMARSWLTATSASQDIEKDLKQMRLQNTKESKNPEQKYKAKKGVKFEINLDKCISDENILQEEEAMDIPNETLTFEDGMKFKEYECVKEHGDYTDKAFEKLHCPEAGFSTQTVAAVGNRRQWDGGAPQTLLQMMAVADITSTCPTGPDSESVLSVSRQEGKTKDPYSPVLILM

Block 1 — read-out: enzyme activity; action: inhibitor; tested at: 0.5 µM; relative to: control
Target: Tyrosine-protein kinase Fer (FER, Homo sapiens, UniProt P16591)
Chain of UniProt P16591 (whole entry, looked up): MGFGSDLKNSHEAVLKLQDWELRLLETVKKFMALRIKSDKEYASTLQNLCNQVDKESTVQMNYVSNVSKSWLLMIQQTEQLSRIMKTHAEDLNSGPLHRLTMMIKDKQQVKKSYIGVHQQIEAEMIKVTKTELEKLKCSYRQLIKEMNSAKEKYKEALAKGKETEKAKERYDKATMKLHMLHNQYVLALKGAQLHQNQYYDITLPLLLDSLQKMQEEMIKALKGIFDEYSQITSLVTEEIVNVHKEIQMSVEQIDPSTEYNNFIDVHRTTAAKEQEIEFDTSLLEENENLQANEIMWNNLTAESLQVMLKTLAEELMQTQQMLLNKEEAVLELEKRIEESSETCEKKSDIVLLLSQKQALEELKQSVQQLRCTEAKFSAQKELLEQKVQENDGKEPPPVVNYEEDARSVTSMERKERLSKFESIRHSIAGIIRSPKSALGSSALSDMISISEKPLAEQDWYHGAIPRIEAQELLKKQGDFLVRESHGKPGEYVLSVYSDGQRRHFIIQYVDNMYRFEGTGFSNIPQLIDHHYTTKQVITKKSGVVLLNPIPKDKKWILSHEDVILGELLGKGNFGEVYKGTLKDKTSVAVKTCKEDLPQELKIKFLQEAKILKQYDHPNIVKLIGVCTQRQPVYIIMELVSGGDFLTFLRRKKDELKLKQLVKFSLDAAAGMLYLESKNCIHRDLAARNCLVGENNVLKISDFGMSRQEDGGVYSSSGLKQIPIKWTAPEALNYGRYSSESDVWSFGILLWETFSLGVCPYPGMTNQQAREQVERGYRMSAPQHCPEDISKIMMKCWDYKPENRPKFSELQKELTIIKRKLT
Compound | remaining activity [%]
O=C(CCCc1ccc(-c2ccccc2F)cc1)Nc1ccc(O)cc1 | 103
OCC(O)CCON=C1C(c2c(O)[nH]c3ccccc23)=Nc2ccccc21 (stereo not drawn) | 28.8
N#CC(C#N)=C(N)/C(C#N)=C/c1ccc(O)cc1 | 91.1
Cc1ccc(Nc2nccc(N(C)c3ccc4c(C)n(C)nc4c3)n2)cc1S(N)(=O)=O | 81.3
COc1cc2ncnc(Nc3ccc(Oc4ccccc4)cc3)c2cc1OC | 75.7
Nc1ccc2ncnc(NCCc3ccc(Oc4ccccc4)cc3)c2c1 | 99.5
Oc1ccc(-c2nc(-c3ccncc3)c(-c3ccc(F)cc3)[nH]2)cc1 | 94.5
Nc1ncnc2n[nH]c(Nc3ccc(F)cc3)c12 | 100
CNC(=O)c1cc(Oc2ccc(NC(=O)Nc3ccc(Cl)c(C(F)(F)F)c3)cc2)ccn1 | 101
O=C1NC(=O)C(c2cn(CCCO)c3ncccc23)=C1c1cnccn1 | 99.2
O=S(=O)(c1cccc2cnccc12)N1CCCNCC1 | 103
Cc1nc(-c2ccccc2)c(-c2ccncc2)o1 | 84.9
Cc1cccc(-c2[nH]c(C(C)(C)C)nc2-c2ccc3c(c2)OCO3)n1 | 85.4
CN(C)c1ccc(C=C2C(=O)Nc3ccccc32)cc1 | 94.5
COc1ccc(OC)c2c(=S)c3ccccc3[nH]c12 | 84
O=C(Nc1cccc(Nc2cc(Nc3cccc(C(F)(F)F)c3)ncn2)c1)C1CC1 | 102
NCCNc1ncc(C(N)=O)c(Nc2cccc(C(F)(F)F)c2)n1 | 37.5
COc1ccc(CNC(=O)Nc2ncc([N+](=O)[O-])s2)cc1 | 101
O=C1NC(=O)C(c2cn(CCCn3ccnc3)c3ccccc23)=C1Nc1ccccc1 | 56.1
CCOC(=O)c1c(C)[nH]c(/C=C2\C(=O)Nc3ccccc32)c1C | 72.5
C#Cc1cccc(Nc2ncnc3cc(OCCOC)c(OCCOC)cc23)c1 | 94
Cn1c2ccccc2c2c3c(c4c5ccccc5n(CCC#N)c4c21)CNC3=O | 5.9
Cn1sc(=O)n(Cc2ccccc2)c1=O | 101
CO[C@H]1C[C@@H]2CC[C@@H](C)[C@@](O)(O2)C(=O)C(=O)N2CCCC[C@H]2C(=O)O[C@H]([C@H](C)C[C@@H]2CC[C@@H](O)[C@H](OC)C2)CC(=O)[C@H](C)/C=C(\C)[C@@H](O)[C@@H](OC)C(=O)[C@H](C)C[C@H](C)/C=C/C=C/C=C/1C | 92
Nc1[nH]nc2nc3ccccc3nc12 | 94.4

Block 2 — tested at: 0.1 µM
SMILES: Nc1c(C(=O)NCc2ccc(C(=O)NCCCC3CCCCC3)cc2)cnn1-c1ccccc1
target | assay | remaining binding
MAP4K2 (Homo sapiens, UniProt Q12851) | cell-free assay, competition with immobilised ligand | 94%
DDR2 (Homo sapiens, UniProt Q16832) | cell-free assay, competition with immobilised ligand | 56%
CAMKK1 (Homo sapiens, UniProt Q8N5S9) | cell-free assay, competition with immobilised ligand | 100%
Tyrosine-protein kinase ABL1, phosphorylated (ABL1, Homo sapiens, UniProt P00519, E255K) | binding, competition with immobilised ligand | 100%
Tyrosine-protein kinase ABL1, non-phosphorylated (ABL1, Homo sapiens, UniProt P00519, F317L) | cell-free assay, competition with immobilised ligand | 100%
Tyrosine-protein kinase ABL1, phosphorylated (ABL1, Homo sapiens, UniProt P00519, F317I) | binding | 100%
GRK1 (Homo sapiens, UniProt Q15835) | cell-free assay, competition with immobilised ligand | 100%
STK38 (Homo sapiens, UniProt Q15208) | cell-free assay, competition with immobilised ligand | 96%
Myosin-IIIb (MYO3B, Homo sapiens, UniProt Q8WXR4) | cell-free assay, competition with immobilised ligand | 100%
CSNK1E (Homo sapiens, UniProt P49674) | cell-free assay, competition with immobilised ligand | 98%

Block 3 — tested at: 1 µM
SMILES: C[C@H]1CC[C@H](n2c3cnccc3c3cnc(Nc4ccc5c(n4)CCN(C(=O)CO)C5)nc32)CC1
target | assay | remaining binding
CDC42BPB (Homo sapiens, UniProt Q9Y5S2) | cell-free assay, competition with immobilised ligand | 91%
YES1 (Homo sapiens, UniProt P07947) | cell-free assay, competition with immobilised ligand | 64%
Ribosomal protein S6 kinase alpha-6, C-terminal kinase domain (RPS6KA6, Homo sapiens, UniProt Q9UK32) | binding, competition with immobilised ligand | 42%
CDK14 (Homo sapiens, UniProt O94921) | binding, competition with immobilised ligand | 17%
RPS6KA5 (Homo sapiens, UniProt O75582) | binding, competition with immobilised ligand | 88%
ABL1 (Homo sapiens, UniProt P00519, Q252H) | – | 73%
MAP4K5 (Homo sapiens, UniProt Q9Y4K4) | binding, competition with immobilised ligand | 100%
BMPR1B (Homo sapiens, UniProt O00238) | cell-free assay, competition with immobilised ligand | 85%
MAPK13 (Homo sapiens, UniProt O15264) | binding, competition with immobilised ligand | 100%
HCK (Homo sapiens, UniProt P08631) | cell-free assay, competition with immobilised ligand | 74%

Block 4 — read-out: enzyme activity; action: inhibitor; tested at: 1 µM
SMILES: CC#CC(=O)N1CCC[C@H]1c1nc(-c2ccc(C(=O)Nc3ccccn3)cc2)c2c(N)nccn12
target | inhibition [%]
NEK5 (Homo sapiens, UniProt Q6P3R8) | 17
PIK3CA (Homo sapiens, UniProt P42336, I800L) | 33
STK32A (Homo sapiens, UniProt Q8WU08) | 0
PLK4 (Homo sapiens, UniProt O00444) | 11
NEK10 (Homo sapiens, UniProt Q6ZWH5) | 0
Tyrosine-protein kinase ABL1, non-phosphorylated (ABL1, Homo sapiens, UniProt P00519) | 34

Block 5 — method: LC-MS/MS; species: human; medium: plasma; route: oral
SMILES: COc1ccc(-c2c(Nc3ccccn3)[nH]c3c(C4=CCCCC4)c(-c4ccccc4)nn3c2=O)cc1
setting | Tlast [h]
100 mg once daily | 24
400 mg once daily | 24
150 mg once daily | 24

Excerpt of the above (block 1):
Compound | remaining activity [%]
O=C1NC(=O)C(c2cn(CCCO)c3ncccc23)=C1c1cnccn1 | 99.2
O=S(=O)(c1cccc2cnccc12)N1CCCNCC1 | 103
Cc1nc(-c2ccccc2)c(-c2ccncc2)o1 | 84.9
